Assay results of several laboratories.
Lines come from different studies, so protocols differ. ± gives the spread as reported. In brackets after ≈: the same amount, converted by molar mass.

c1ccc(CN2CCCNCCN(Cc3ccccc3)CCCNCC2)cc1  IC90 (Leishmania donovani; parasite growth, resazurin; 72 h, amastigote): > 25 µM
N#Cc1ccc(-c2ccc(-c3ccco3)o2)cc1F  mutant frequency (Salmonella enterica; TA1535; 10 µM, 48 h, with: sodium azide after pre-exposure; reference: sodium azide alone): 48%
CCC(C)(C)C(=O)O[C@H]1C[C@@H](C)C=C2C=C[C@H](C)[C@H](CC[C@@H]3C[C@@H](O)CC(=O)O3)[C@H]21  EC90 (hepatitis B virus; viral replication; HepG2.2.15): 8.6 ± 0.8 µM
Nc1cc2nc[nH]c2c(=O)[nH]1  EC90 (Enterovirus D68; RD, US/KY/14-18953; 72 h): 8 ± 1.1 µM
CCc1nc(N)nc(N)c1-c1ccc(Cl)cc1  ED50 (Trypanosoma brucei brucei; Alamar blue; Lister 427 bloodstream form; concentration not given, 10% fetal calf serum): 26.6 ± 0.7 µM
CCCCCCCCCCCCCCCCCC(=O)N/N=C/c1ccccc1  MIC (Aspergillus niger; microbial growth, broth dilution; 7 days): 63.1 µM (≈ 24.4 µg/mL)
CO/C(=C/C(N)=O)[C@H](C)[C@H](/C=C/c1csc(-c2csc([C@@H](C)/C=C/C=C/C(C)C)n2)n1)OC  IC50 (Wickerhamomyces anomalus; O2 uptake, inhibitor; mitochondria; with: NADH 1 mM): 0.069 µM
Cc1ccc(Cn2cc(C=O)c3cc([N+](=O)[O-])ccc32)cc1  IC50 (Leishmania major; parasite growth, resazurin; THP-1; 24 h, intracellular, amastigote): > 10 µM
O=C(N[C@H](Cc1ccccc1)C(=O)Nc1ccccc1N1CCOCC1)c1cccs1  MIC90 (Mycobacteroides abscessus; microbial growth; ATCC19977): 6.25 to 12.5 µM (≈ 2.72 to 5.44 µg/mL)
Nc1ncnc2c1ncn2CCOCP(=O)(O)O  EC90 (hepatitis B virus; viral replication; HepG2.2.15): 2.9 ± 0.2 µM
C=CC1=C(C)/C(=C/C2=NC(=C\c3[nH]c(/C=C4\NC(=O)C(C)=C4C=C)c(C)c3CCC(=O)O)/C(CCC(=O)O)=C2C)NC1=O  lowest effective concentration (hepatitis C virus; viral replication, RT-PCR; Huh7.5 full-length Con1 replicon; 48 h): 20 µM
N#Cc1ccc(-c2ccc(-c3cccs3)o2)c(F)c1  mutant frequency (Salmonella enterica; TA1535; 20 µM, 48 h, with: sodium azide co-exposure; reference: sodium azide alone): 29%
CCCCCCCCCCCC(=O)N/N=C/c1ccccc1Cl  MIC (Aspergillus niger; microbial growth, broth dilution; 7 days): 37.2 µM (≈ 12.5 µg/mL)
O=Cc1cn(Cc2cccc(Cl)c2)c2ccc([N+](=O)[O-])cc12  IC50 (Trypanosoma equiperdum; trypomastigotes, IVM-t1): > 79 µM
c1ccc(CN2CCN3CCCN(CC2)CCN(Cc2ccccc2)CC3)cc1  IC90 (Leishmania donovani; parasite growth, resazurin; 72 h, promastigote): > 20 µM
CN(CC(=O)N(Cc1ccc(C2CCCCC2)cc1)c1ccc(C(=O)O)cc1)S(=O)(=O)c1c(F)c(F)c(F)c(F)c1F  IC90 (dengue virus type 2 New Guinea C; viral yield; single-cycle yield reduction): 2.7 ± 1 µM
C/C=C(C)/C=C/C=C/[C@H](OC)[C@@H](C)[C@@H](OC)[C@@H](C)CCc1oc2c(O)c(OC)cc(OC)c2c(=O)c1C  lowest effective concentration (Zymoseptoria tritici; disease control, glasshouse foliar spray; Triticum aestivum; disease control 100%): > 180 µM
CC(=O)N[C@H]1[C@H]([C@H](O)[C@H](O)CO)OC(C(=O)O)=C[C@@H]1N=C(N)N  antiviral activity (human respiratory syncytial virus; BEAS-2B, A2-L19F-renilla; concentration not given): inactive
N=C(N)c1ccc(-c2ccc(-c3cccs3)o2)cc1F  mutant frequency (Salmonella enterica; TA1535; 20 µM, 48 h, with: sodium azide after pre-exposure; reference: sodium azide alone): 33%
LSTFFRLFNGRRRRSVQWCA  biofilm growth (Streptococcus mutans; OD600; peptide, UA159, 4 h single-species biofilm; 128 µg/ml, 5 min exposure, OD600 read over 5 h): decreased
N#Cc1ccc(-c2ccc(-c3cccs3)o2)cc1F  mutant frequency (Salmonella enterica; TA1535; 10 µM, 48 h, with: sodium azide co-exposure; reference: sodium azide alone): 35%
C=C1[C@H](CO)[C@@H](O)C[C@@H]1n1cnc2c(=O)[nH]c(N)nc21  capsid assembly (hepatitis B virus; native agarose gel; AML12HBV10; 1 µM, 2 days): no effect
CCN(CC)CCNC(=O)c1cc(S(C)(=O)=O)ccc1OC  pseudovirus entry (coronavirus spike pseudovirus; luciferase reporter; ACE2-high cells; 20 µM, unit not given; reference: untreated): 0.1 ± 0.01
CN1CCN2CCN(CC1)CCN(Cc1ccccc1)CC2  IC90 (Leishmania donovani; parasite growth, resazurin; 72 h, promastigote): > 20 µM
CN(C)c1ccc(/C=C/C=NN2C(S)=NCN2/C=C/c2ccccc2)cc1  LC50 (Aedes aegypti; third instar larvae): 170 µg/mL (≈ 450 µM)
COc1c(C[C@@H](C)OC(=O)Oc2ccc(O)cc2)c2c3c(C[C@@H](C)OC(=O)c4ccccc4)c(OC)c(=O)c4c(O)cc(OC)c(c5c(OC)cc(O)c(c1=O)c52)c43  effective concentration (Aspergillus fumigatus; metabolic activity (XTT); 48 h, 37 °C, with: colistin 20 µM): 25 µg/mL
CSc1ccc(OCc2ncc([N+](=O)[O-])n2C)cc1  susceptibility ratio (Leishmania donovani; macrophages, LdBOB nitroreductase-overexpressing amastigotes; reference: overexpressing over wild type): > 15 fold
CCCCCCCCCCCC(=O)N/N=C/c1ccccc1  MIC (Staphylococcus aureus, Bacillus subtilis, Escherichia coli; bacterial growth; 24 h): 44.7 µM (≈ 13.5 µg/mL)
O=Cc1cn(Cc2ccccc2)c2ccc([N+](=O)[O-])cc12  IC50 (Trypanosoma equiperdum; trypomastigotes, IVM-t1): > 89 µM
O=C(N/N=C/c1ccccc1Cl)c1cc([N+](=O)[O-])cc([N+](=O)[O-])c1  MIC (Aspergillus niger; microbial growth, broth dilution; 7 days): 25.1 µM (≈ 8.76 µg/mL)
TFFRLFNRSFTGRRRRSVQWCA  biofilm growth (Streptococcus mutans; OD600; peptide, UA159, 4 h single-species biofilm; 128 µg/ml, 5 min exposure, OD600 read over 5 h): decreased
CN1CCCN2CCN(CCCN(Cc3ccccc3)CC2)CC1  IC90 (Leishmania donovani; parasite growth, resazurin; 72 h, amastigote): > 20 µM
C[C@H](Cn1cnc2c(N)ncnc21)OCP(=O)(O)O  inhibition (human alphaherpesvirus 2; virus production, plaque reduction; human monocytes/macrophages; 100 µg/mL, 6 days): 100%
CN[C@@](C)(C[18F])C(=O)O  tracer uptake (MDA-MB-468 tumour model; host not given, blood; 15 min, tumour-bearing): 2.3 %ID/g
N=C(N)c1ccc(-c2ccc(-c3ccco3)o2)c(F)c1  inhibition (Salmonella enterica; sodium azide mutagenicity; TA1535; 10 µM, 48 h, with: sodium azide 2 µg/plate after pre-exposure): 74%
CC[C@H](C)CCCCC(=O)N[C@@H](CCN)C(=O)N[C@H](C(=O)N[C@@H](CCN)C(=O)N[C@H]1CCNC(=O)[C@H]([C@@H](C)O)NC(=O)[C@H](CCN)NC(=O)[C@H](CCN)NC(=O)[C@H](CC(C)C)NC(=O)[C@@H](Cc2ccccc2)NC(=O)[C@H](CCN)NC1=O)[C@@H](C)O  microbiological response at end of treatment (Enterobacter cloacae; carbapenem-resistant, human; inhaled plus intravenous, 25 mg inhaled plus 75 mg intravenous every 12 h, 11 d, with: fosfomycin and sulfamethoxazole): negative
CP(=O)(O)CCC(N)C(=O)O (stereo not drawn)  herbicidal activity (Ipomoea hederacea; 500 g/ha, 13 days, IPOHE, post-emergence spray; reference: untreated (0%), complete kill (100%)): 100%
Cc1cccc(C(=O)N/N=C/c2ccccc2)c1  MIC (Staphylococcus aureus, Bacillus subtilis, Escherichia coli; bacterial growth; 24 h): 52.5 µM (≈ 12.5 µg/mL)
zinc borate  MBC (Serratia marcescens; broth macrodilution; clinical isolate; 9%, with: boric acid): > 9%
meglumine antimoniate  inhibition of infection (Leishmania infantum; J774.2 macrophages; IC25, day 10; reference: untreated): 29%
O=Cc1cn(Cc2ccc(F)cc2)c2ccc([N+](=O)[O-])cc12  IC50 (Leishmania major; parasite growth, resazurin; promastigote): 97.2 µM
N#Cc1ccc(-c2ccc(-c3cccs3)s2)cc1F  mutant frequency (Salmonella enterica; TA1535; 20 µM, 48 h, with: sodium azide co-exposure; reference: sodium azide alone): 18%
C/C(=C\Cc1c(O)c(Cl)c(C)c(C=O)c1O)CC/C=C(\C)[C@@H]1CC(=O)C(C)(C)O1  IC50 (Wickerhamomyces anomalus; O2 uptake, inhibitor; mitochondria; with: glycerol 3-phosphate 20 mM): 36.5 µM
N#Cc1ccc(-c2ccc(-c3ccco3)o2)c(F)c1  mutant frequency (Salmonella enterica; TA1535; 20 µM, 48 h, with: sodium azide co-exposure; reference: sodium azide alone): 26%
Cc1cccc(C2=NN3C(=NCN3/C=C/c3ccccc3)S2)c1  LC50 (Aedes aegypti; third instar larvae): 130 µg/mL (≈ 406 µM)
C[C@@H]1N[C@H](CCCCCCCCCCC2=C[C@@H](CCCCCCCCCC[C@@H]3CC[C@@H](O)[C@H](C)N3)[C@@H]3CCCN3C2)CC[C@H]1O  IC90 (Leishmania donovani; parasite growth; THP-1; intracellular, amastigote): 1.65 µg/mL
O=C(N/N=C/c1ccccc1)c1cc([N+](=O)[O-])cc([N+](=O)[O-])c1  MIC (Aspergillus niger; microbial growth, broth dilution; 7 days): 20 µM (≈ 6.27 µg/mL)
NC(=S)NNC(=O)/C=C/c1ccc(N)cc1  LC50 (Aedes aegypti; third instar larvae): 190 µg/mL (≈ 804 µM)

Repeated from above:
O=C(N[C@H](Cc1ccccc1)C(=O)Nc1ccccc1N1CCOCC1)c1cccs1  MIC90 (Mycobacteroides abscessus; microbial growth; ATCC19977): 6.25 to 12.5 µM (≈ 2.72 to 5.44 µg/mL)
Nc1ncnc2c1ncn2CCOCP(=O)(O)O  EC90 (hepatitis B virus; viral replication; HepG2.2.15): 2.9 ± 0.2 µM
C=CC1=C(C)/C(=C/C2=NC(=C\c3[nH]c(/C=C4\NC(=O)C(C)=C4C=C)c(C)c3CCC(=O)O)/C(CCC(=O)O)=C2C)NC1=O  lowest effective concentration (hepatitis C virus; viral replication, RT-PCR; Huh7.5 full-length Con1 replicon; 48 h): 20 µM
